Assay results pooled from the literature.
Parts stem from different laboratories: compare values within a part only.
UniProt P49841, sequence (whole entry, looked up): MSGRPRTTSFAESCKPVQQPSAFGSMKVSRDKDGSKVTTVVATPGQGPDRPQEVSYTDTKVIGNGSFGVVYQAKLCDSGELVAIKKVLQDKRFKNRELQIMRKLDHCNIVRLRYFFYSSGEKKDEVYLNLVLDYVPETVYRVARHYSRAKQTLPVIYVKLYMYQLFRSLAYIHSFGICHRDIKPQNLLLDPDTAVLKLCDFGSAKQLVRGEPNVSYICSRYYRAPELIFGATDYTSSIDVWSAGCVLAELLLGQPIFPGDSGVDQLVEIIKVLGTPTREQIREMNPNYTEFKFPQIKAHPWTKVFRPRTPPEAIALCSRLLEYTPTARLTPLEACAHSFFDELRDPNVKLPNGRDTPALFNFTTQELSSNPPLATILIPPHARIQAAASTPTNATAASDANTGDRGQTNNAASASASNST
UniProt P27037, sequence (whole entry, looked up): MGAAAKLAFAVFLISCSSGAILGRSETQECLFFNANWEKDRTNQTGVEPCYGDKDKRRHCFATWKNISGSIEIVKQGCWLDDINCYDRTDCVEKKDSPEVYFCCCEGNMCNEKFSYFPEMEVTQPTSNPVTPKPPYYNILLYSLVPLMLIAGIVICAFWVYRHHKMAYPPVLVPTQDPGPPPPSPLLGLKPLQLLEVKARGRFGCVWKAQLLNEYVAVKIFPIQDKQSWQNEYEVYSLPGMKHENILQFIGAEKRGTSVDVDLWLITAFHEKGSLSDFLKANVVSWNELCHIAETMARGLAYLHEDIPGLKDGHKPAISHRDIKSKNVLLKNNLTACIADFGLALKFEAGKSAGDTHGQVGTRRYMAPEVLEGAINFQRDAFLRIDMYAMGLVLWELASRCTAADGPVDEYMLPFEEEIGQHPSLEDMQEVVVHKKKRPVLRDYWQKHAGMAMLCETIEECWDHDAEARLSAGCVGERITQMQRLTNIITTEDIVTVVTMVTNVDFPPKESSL
UniProt Q9UQM7, sequence (whole entry, looked up): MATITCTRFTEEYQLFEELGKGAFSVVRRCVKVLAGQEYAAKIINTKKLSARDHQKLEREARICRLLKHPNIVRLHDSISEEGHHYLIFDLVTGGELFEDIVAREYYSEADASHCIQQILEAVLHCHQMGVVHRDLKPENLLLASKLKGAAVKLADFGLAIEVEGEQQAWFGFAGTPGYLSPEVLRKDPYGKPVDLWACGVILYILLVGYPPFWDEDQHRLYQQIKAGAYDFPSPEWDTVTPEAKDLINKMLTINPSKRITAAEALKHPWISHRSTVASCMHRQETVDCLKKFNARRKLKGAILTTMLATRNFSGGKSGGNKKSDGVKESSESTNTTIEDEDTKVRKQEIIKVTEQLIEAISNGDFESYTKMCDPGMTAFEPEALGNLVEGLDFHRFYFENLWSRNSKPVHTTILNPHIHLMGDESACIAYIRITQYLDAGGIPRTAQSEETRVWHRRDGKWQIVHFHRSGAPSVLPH
UniProt P49137, sequence (whole entry, looked up): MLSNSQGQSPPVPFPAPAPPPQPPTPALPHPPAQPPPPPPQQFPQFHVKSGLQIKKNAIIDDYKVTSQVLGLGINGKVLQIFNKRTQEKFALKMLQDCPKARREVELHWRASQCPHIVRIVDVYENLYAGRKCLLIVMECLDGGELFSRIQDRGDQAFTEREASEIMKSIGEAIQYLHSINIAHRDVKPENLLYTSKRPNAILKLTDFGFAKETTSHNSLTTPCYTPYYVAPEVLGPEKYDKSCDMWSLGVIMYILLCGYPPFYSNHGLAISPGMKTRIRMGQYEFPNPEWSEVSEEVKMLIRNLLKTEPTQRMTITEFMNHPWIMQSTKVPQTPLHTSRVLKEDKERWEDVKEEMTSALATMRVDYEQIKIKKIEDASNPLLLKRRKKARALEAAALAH
UniProt P15735, sequence (whole entry, looked up): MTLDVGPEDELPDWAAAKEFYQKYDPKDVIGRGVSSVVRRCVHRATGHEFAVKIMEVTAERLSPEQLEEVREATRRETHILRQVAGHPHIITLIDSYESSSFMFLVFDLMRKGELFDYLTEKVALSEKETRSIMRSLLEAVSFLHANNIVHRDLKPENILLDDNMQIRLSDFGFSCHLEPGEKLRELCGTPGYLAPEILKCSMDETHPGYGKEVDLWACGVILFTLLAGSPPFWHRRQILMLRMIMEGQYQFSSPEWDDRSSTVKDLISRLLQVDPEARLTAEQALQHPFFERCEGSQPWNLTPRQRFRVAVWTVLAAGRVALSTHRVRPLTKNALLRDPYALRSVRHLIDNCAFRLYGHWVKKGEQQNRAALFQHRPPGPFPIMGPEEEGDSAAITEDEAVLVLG
UniProt O43683, sequence (whole entry, looked up): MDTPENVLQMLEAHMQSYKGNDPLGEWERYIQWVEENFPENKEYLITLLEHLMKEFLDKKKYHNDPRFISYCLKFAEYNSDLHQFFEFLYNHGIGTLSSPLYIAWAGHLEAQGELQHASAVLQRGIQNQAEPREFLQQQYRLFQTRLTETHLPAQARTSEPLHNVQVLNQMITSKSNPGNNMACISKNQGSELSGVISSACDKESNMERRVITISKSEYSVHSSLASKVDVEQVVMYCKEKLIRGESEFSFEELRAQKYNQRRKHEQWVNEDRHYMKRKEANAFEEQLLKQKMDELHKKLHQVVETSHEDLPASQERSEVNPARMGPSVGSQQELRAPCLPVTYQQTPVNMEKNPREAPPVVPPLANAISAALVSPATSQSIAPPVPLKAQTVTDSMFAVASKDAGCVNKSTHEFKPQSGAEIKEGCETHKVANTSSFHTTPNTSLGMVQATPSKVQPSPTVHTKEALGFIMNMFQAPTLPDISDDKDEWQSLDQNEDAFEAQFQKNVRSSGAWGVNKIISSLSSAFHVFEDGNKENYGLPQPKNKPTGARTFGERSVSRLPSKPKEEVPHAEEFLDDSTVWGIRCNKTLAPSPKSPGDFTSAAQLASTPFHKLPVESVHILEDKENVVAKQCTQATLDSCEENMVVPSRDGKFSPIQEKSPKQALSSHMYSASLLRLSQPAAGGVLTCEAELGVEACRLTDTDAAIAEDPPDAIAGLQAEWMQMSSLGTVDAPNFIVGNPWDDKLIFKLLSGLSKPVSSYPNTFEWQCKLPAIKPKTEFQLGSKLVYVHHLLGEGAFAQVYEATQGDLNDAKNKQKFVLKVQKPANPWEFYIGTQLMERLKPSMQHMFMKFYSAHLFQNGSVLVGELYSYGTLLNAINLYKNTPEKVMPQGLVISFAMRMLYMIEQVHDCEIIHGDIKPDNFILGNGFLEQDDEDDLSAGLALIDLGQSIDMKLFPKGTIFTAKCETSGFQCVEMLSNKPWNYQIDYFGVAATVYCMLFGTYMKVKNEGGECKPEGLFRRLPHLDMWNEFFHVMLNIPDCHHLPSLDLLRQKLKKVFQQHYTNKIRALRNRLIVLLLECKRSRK
UniProt O95382, sequence (whole entry, looked up): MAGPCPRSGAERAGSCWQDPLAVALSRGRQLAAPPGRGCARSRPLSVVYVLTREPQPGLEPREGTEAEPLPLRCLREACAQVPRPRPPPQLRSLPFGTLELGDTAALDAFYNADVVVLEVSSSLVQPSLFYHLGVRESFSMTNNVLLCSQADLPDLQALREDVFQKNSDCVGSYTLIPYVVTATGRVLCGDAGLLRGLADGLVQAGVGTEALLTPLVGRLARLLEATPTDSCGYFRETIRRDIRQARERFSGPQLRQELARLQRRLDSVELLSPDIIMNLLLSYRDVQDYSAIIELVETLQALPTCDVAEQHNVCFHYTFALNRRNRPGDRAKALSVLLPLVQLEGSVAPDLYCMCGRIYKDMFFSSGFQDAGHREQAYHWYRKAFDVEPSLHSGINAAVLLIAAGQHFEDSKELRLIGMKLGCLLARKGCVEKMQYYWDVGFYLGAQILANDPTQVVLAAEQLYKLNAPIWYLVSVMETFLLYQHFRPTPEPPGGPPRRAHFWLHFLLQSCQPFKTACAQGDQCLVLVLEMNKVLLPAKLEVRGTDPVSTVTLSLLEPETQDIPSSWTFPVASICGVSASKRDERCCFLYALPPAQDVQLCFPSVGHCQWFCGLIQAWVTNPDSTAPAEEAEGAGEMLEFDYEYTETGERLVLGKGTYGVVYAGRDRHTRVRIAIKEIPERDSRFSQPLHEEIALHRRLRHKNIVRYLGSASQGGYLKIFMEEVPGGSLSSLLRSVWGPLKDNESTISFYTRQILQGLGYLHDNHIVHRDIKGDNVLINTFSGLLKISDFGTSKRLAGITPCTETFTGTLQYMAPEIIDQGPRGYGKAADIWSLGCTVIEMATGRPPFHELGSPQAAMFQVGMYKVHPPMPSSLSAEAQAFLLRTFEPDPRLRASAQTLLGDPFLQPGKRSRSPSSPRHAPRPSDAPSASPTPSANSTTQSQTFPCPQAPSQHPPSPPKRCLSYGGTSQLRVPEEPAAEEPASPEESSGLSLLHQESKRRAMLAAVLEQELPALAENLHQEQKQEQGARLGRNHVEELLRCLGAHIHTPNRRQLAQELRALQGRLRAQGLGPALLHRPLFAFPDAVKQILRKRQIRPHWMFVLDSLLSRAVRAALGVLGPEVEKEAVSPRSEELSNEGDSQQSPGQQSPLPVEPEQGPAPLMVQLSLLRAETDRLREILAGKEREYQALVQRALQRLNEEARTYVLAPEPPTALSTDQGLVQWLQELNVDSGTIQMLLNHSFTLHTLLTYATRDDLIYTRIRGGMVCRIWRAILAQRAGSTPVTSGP

Study 1 — quantity: patients with adverse event
SMILES: CC(C)n1cnc(-c2ccc(F)cc2)c1-c1ncc(C(=O)Nc2ccc(N3CCN(C)CC3)cc2)[nH]1
Phase 2a trial, item: hypocalcaemia; human, idiopathic pulmonary fibrosis; 60 mg once daily, grade 4: 0%
Phase 2a trial, item: hypertriglyceridaemia; human, idiopathic pulmonary fibrosis; all compound arms total, grade 5: 0%
Phase 2a trial, item: blood fibrinogen increased; human, idiopathic pulmonary fibrosis; all compound arms total, grade 3: 0%
Phase 2a trial, item: blood urea increased; human, idiopathic pulmonary fibrosis; 60 mg once daily, grade 4: 0%
Phase 2a trial, item: blood creatinine increased; human, idiopathic pulmonary fibrosis; all compound arms total, grade 5: 0%
item: prostatic calcification, maximum grade 2; idiopathic pulmonary fibrosis patients; dose not given, all compound arms pooled: 0%
Phase 2a trial, item: eosinophilia myalgia syndrome; human, idiopathic pulmonary fibrosis; all compound arms, grade 3: 0%
Phase 2a trial, item: blood pressure increased; human, idiopathic pulmonary fibrosis; 30 mg once daily, grade 4: 0%
Phase 2a trial, item: blood urea increased; human, idiopathic pulmonary fibrosis; 30 mg once daily, grade 1: 0%
Phase 2a trial, item: blood creatinine increased; human, idiopathic pulmonary fibrosis; 30 mg once daily, grade 1: 0%
Phase 2a trial, item: blood lactate dehydrogenase increased; human, idiopathic pulmonary fibrosis; 60 mg once daily, grade 4: 0%
item: abnormal liver function test, grade 3; idiopathic pulmonary fibrosis patients; dose not given, all compound arms pooled: 0%
Phase 2a trial, item: hypercholesterolaemia; human, idiopathic pulmonary fibrosis; all compound arms total, grade 1: 0%

Study 2 — effect on: enzyme activity; mode: inhibitor; concentration: 0.5 µM; reference: control; quantity: remaining activity
Target: Myotonin-protein kinase (DMPK, Homo sapiens, UniProt Q09013)
Construct (Q09013 1-629): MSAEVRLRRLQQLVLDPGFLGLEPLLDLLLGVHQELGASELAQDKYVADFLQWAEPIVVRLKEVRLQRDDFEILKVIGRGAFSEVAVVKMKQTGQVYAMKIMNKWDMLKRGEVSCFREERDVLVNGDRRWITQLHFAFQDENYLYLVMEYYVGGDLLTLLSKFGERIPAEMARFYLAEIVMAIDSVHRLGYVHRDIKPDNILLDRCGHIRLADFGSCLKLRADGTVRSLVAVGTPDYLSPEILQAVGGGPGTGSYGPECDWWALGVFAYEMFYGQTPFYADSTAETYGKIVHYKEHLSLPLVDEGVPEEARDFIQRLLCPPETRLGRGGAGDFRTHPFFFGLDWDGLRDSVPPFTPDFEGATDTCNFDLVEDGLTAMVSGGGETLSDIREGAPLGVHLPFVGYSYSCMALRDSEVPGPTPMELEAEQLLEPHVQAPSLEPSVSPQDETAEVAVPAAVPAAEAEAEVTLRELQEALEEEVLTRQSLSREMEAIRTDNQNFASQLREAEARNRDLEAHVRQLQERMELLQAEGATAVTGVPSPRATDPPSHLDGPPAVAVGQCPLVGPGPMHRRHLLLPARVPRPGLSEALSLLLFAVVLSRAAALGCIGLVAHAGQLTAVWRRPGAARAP
O=Nc1c(-c2c(O)[nH]c3cc(Br)ccc23)[nH]c2ccccc12: 124%
Nc1nc(Nc2ccc(S(N)(=O)=O)cc2)nn1C(=S)Nc1c(F)cccc1F: 78.4%
N#Cc1cnc2cnc(NCc3cccnc3)cc2c1Nc1ccc(F)c(Cl)c1: 104%
COc1cc2c(N3CCN(C(=O)Nc4ccc(OC(C)C)cc4)CC3)ncnc2cc1OCCCN1CCCCC1: 101%
COc1cccc(-c2cc(=O)c3ccccc3o2)c1N: 97.1%
O=C1Cc2c([nH]c3ccc(Br)cc23)-c2ccccc2N1: 110%
CNc1cc2c(Nc3cccc(Br)c3)ncnc2cn1: 112%
O=C(O)/C=C/c1cc(Br)c(Br)c(Br)c1Br: 103%
O=C1Nc2ccccc2/C1=C\c1c(Cl)[nH]c2ccccc12: 101%
c1ccc2c(-c3ccncc3)c[nH]c2c1: 109%
c1cc(-c2cnn3cc(-c4ccc(OCCN5CCCCC5)cc4)cnc23)ccn1: 99.3%
O=c1c(-c2ccc(F)cc2)c(-c2ccncc2)[nH]n1-c1ccc(Cl)cc1: 87.6%
Cc1cc(Nc2cc(N3CCN(C)CC3)nc(Sc3ccc(NC(=O)C4CC4)cc3)n2)[nH]n1: 98.5%
CC(C)n1cnc2c(Nc3cccc(Cl)c3)nc(NCCO)nc21: 98.5%
O=C1c2ccccc2-c2nc3nnnn3nc21: 84.8%
O=c1cc(N2CCOCC2)oc2c(-c3ccccc3)cccc12: 99.4%
O=C1NC(=O)c2c1c1c3ccccc3[nH]c1c1[nH]c3cc(Br)ccc3c21: 104%
CCCNC(=O)Nc1ccc(Oc2ncnc3cc(OC)c(OC)cc23)cc1Cl: 100%
O=C1NC(=O)/C(=C/c2ccc3c(c2)OC(F)(F)O3)S1: 97.5%
C[C@@H](N)[C@H]1CC[C@H](C(=O)Nc2ccncc2)CC1: 99%
CCCCc1c(-c2ccc(O)cc2)[nH]c2nccnc12: 91.8%
CCCCc1c(-c2ccc(OC)cc2)[nH]c2nccnc12: 84.3%
NC(=O)c1cccc(-c2cc(Nc3ccc(OC(F)(F)F)cc3)ncn2)c1: 96.1%
O=C1NC(=O)c2c1c1c3ccccc3[nH]c1n1cncc21: 101%
COc1ccc2c(c1)c(C1=C(c3c[nH]c4ccccc34)C(=O)NC1=O)cn2CCCN(C)C: 97.7%

Study 3 — organism: Sarcocystis neurona; effect on: parasite growth; concentration: 10 µM; quantity: inhibition
COc1ccnc(C[S+]([O-])c2nc3ccc(OC(F)F)cc3[nH]2)c1OC (stereo not shown): -50.6%
CC(C)c1nc(CN(C)C(=O)N[C@H](C(=O)N[C@@H](Cc2ccccc2)C[C@H](O)[C@H](Cc2ccccc2)NC(=O)OCc2cncs2)C(C)C)cs1: 29.9%
CN(C/C=C/C#CC(C)(C)C)Cc1cccc2ccccc12: -32.9%
CCN(CC)CCNC(=O)c1cc(Cl)c(N)cc1OC.Cl: -20.1%
CC[C@]1(O)C[C@@H]2CN(CCc3c([nH]c4ccccc34)[C@@](C(=O)OC)(c3cc4c(cc3OC)N(C)[C@H]3[C@@](O)(C(N)=O)[C@H](O)[C@]5(CC)C=CCN6CC[C@]43[C@@H]65)C2)C1: 9.5%
CC(c1cc2ccccc2s1)N(O)C(N)=O (stereo not shown): -51.6%
NS(=O)(=O)c1cc(C2(O)NC(=O)c3ccccc32)ccc1Cl (stereo not shown): -20.8%
C[C@H]1C[C@H]2[C@@H]3CCC4=CC(=O)C=C[C@]4(C)[C@@]3(Cl)[C@@H](O)C[C@]2(C)[C@@]1(O)C(=O)CO: 3.2%
Br.O=C1CC2(CCCC2)CC(=O)N1CCNCC1COc2ccccc2O1 (stereo not shown): 28.4%
COc1cc(NC(C)CCCN)c2ncccc2c1 (stereo not shown): 98.7%
COc1cc([C@@H]2c3cc4c(cc3[C@@H](O[C@@H]3O[C@@H]5CO[C@@H](C)O[C@H]5[C@H](O)[C@H]3O)[C@H]3COC(=O)[C@H]23)OCO4)cc(OC)c1O: -22.2%
C[N+]1(C)CCC(OC(=O)C(O)(c2ccccc2)C2CCCC2)C1 (stereo not shown): -36.1%
CCc1cccc2c3c([nH]c12)C(CC)(CC(=O)O)OCC3 (stereo not shown): -32.4%

Study 4 — concentration: 1 µM; quantity: remaining binding
Structure (SMILES): O=C(O)[C@@H]1[C@@H](Cn2nnc3ccccc3c2=O)CC[C@H]1C(=O)c1ccc(OCCC2CCOCC2)cc1
Serine/threonine-protein kinase MRCK gamma (CDC42BPG, Homo sapiens, UniProt Q6DT37); competition binding: 100%
Receptor-type tyrosine-protein kinase FLT3 (FLT3, Homo sapiens, UniProt P36888, N841I); cell-free assay, competition with immobilised ligand: 98%
Mitogen-activated protein kinase kinase kinase 6 (MAP3K6, Homo sapiens, UniProt O95382); cell-free assay, competition with immobilised ligand: 79%
Glycogen synthase kinase-3 beta (GSK3B, Homo sapiens, UniProt P49841); cell-free assay, competition with immobilised ligand: 100%
MAP kinase-activated protein kinase 2 (MAPKAPK2, Homo sapiens, UniProt P49137); cell-free assay, competition with immobilised ligand: 100%
Mitotic checkpoint serine/threonine-protein kinase BUB1 (BUB1, Homo sapiens, UniProt O43683); cell-free assay, competition with immobilised ligand: 73%
Calcium/calmodulin-dependent protein kinase type II subunit alpha (CAMK2A, Homo sapiens, UniProt Q9UQM7); cell-free assay, competition with immobilised ligand: 100%
Phosphorylase b kinase gamma catalytic chain, liver/testis isoform (PHKG2, Homo sapiens, UniProt P15735); cell-free assay, competition with immobilised ligand: 100%
Activin receptor type-2A (ACVR2A, Homo sapiens, UniProt P27037); cell-free assay, competition with immobilised ligand: 100%
Mast/stem cell growth factor receptor Kit (KIT, Homo sapiens, UniProt P10721); cell-free assay, competition with immobilised ligand: 100%

Some of these lines once more (study 2):
CCCNC(=O)Nc1ccc(Oc2ncnc3cc(OC)c(OC)cc23)cc1Cl: 100%
COc1cccc(-c2cc(=O)c3ccccc3o2)c1N: 97.1%
O=C1NC(=O)c2c1c1c3ccccc3[nH]c1n1cncc21: 101%
C[C@@H](N)[C@H]1CC[C@H](C(=O)Nc2ccncc2)CC1: 99%
NC(=O)c1cccc(-c2cc(Nc3ccc(OC(F)(F)F)cc3)ncn2)c1: 96.1%
O=c1cc(N2CCOCC2)oc2c(-c3ccccc3)cccc12: 99.4%
c1cc(-c2cnn3cc(-c4ccc(OCCN5CCCCC5)cc4)cnc23)ccn1: 99.3%
O=C1NC(=O)/C(=C/c2ccc3c(c2)OC(F)(F)O3)S1: 97.5%
CCCCc1c(-c2ccc(OC)cc2)[nH]c2nccnc12: 84.3%
